Published values gathered from unrelated publications.
Each line is one published result; not all experiments were run side by side. Values joined by “and” are separate records of one study, mostly repeats; a detail may differ. ≈ marks a conversion by molar mass, not a printed value.
Chain of UniProt Q53GS9 (whole entry, looked up): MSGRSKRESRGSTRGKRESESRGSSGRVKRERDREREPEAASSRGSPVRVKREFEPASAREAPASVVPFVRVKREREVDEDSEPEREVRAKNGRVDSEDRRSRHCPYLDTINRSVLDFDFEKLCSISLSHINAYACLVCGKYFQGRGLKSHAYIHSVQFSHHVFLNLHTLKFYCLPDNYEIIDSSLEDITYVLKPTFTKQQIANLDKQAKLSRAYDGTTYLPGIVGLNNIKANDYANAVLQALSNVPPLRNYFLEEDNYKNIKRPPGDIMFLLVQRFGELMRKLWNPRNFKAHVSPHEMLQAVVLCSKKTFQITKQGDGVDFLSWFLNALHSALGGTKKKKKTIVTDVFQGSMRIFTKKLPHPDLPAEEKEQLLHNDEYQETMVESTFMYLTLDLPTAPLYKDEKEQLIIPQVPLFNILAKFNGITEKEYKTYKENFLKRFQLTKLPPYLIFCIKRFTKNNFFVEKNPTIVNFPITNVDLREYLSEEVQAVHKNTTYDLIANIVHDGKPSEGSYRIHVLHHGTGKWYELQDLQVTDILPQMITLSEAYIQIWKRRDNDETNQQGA

| SMILES | target or system | assay | system | setting | scale | quantity | result |
| --- | --- | --- | --- | --- | --- | --- | --- |
| Cc1nc(N(C)C(=O)Cc2ccc(-c3ccccn3)cc2)sc1S(N)(=O)=O | human alphaherpesvirus 1 |  | K26 GFP, 3D skin equivalent, submerged |  | relative to: CC50 over IC50 | selectivity index | > 20 |
| Cn1cc(-c2ccc(-c3cncc(Cl)c3N3CCC4(CCNC4=O)CC3)cc2)cn1 | COLO 205 | microarray, item: CDKN1A |  | concentration not given, 6 h, gene set p21 | relative to: untreated cells | fold change in expression | 2.98 |
| O=C(/C=C\n1cnc(-c2cc(C(F)(F)F)cc(C(F)(F)F)c2)n1)NNc1ccccn1 | human alphaherpesvirus 1 |  | primary human keratinocytes, K26 GFP |  | relative to: CC50 over IC50 | selectivity index | 3.95 |
| Cc1cccc(-c2[nH]c(CNc3ccccc3F)nc2-c2ccc3ncnn3c2)n1 | NLRP3 inflammasome (mouse) |  | mouse BMDM | 10 µM |  | inhibition | 15.7% |
| OC(CCN1CCCCC1)(c1ccccc1)C1CC2C=CC1C2 (centres unmarked) |  | resting-state EEG | healthy elderly humans | oral, 4 mg, eyes open, LS mean |  | EEG power, beta, Pz-O1 | 6.1 µV² |
| O=C(Nc1ccc([N+](=O)[O-])cc1Cl)c1cc(Cl)ccc1O | human alphaherpesvirus 1 |  | primary human fibroblasts, K26 GFP | CC50 capped at 10.00 µM | relative to: CC50 over IC50 | selectivity index | > 27 |
| CCOc1cc2ncc(C#N)c(Nc3ccc(OCc4ccccn4)c(Cl)c3)c2cc1NC(=O)/C=C/CN(C)C | NLRP3 inflammasome (mouse) |  | mouse BMDM | 10 µM |  | inhibition | 31.9% |
| c1coc(-c2n[nH]cc2-c2ccnc3ccccc23)c1 | orf19.6492 Candida albicans | kinase binding, MIB/MS competition | Candida albicans lysate | 1 µM | relative to: DMSO | log2 fold change | -0.22 |
| CC(Nc1nc(N2CCCC2)nc2ccccc12)c1ccccc1 (centres unmarked) | importin α/β1 | cMyc nuclear import, high content imaging | HeLa Kyoto reporter | 1.58 µM, 2 h |  | cells with nuclear reporter | 90.5% |
| O=C(/C=C/C=C/C=C/C1CCCCC1)NC1=C[C@@](O)(/C=C/C=C/C=C/C(=O)NC2=C(O)CCC2=O)[C@@H]2O[C@@H]2C1=O | GP2d | cell growth, CellTiter-Glo |  | 78 h |  | GI50 | 11.9 µM |
| NC(=O)c1cnc2[nH]ccc2c1N[C@@H]1[C@@H]2CC3C[C@H]1C[C@@](O)(C3)C2 |  | flow cytometry | Japanese healthy men, blood | oral, 30 mg twice daily, 72 h after day 7 dose | relative to: baseline | CD8+ naive T-cell change | -0.77% |
| CC(C)(C)c1cc(NC(=O)Nc2ccc(-c3cn4c(n3)sc3cc(OCCN5CCOCC5)ccc34)cc2)no1 | iCell Cardiomyocytes (hiPSC-derived) | cellular impedance |  | concentration not given, 24 h | relative to: control | cell index | 99.3% |
| COc1cc2c(N3CCN(C(=O)Nc4ccc(OC(C)C)cc4)CC3)ncnc2cc1OCCCN1CCCCC1 | NLRP3 inflammasome (mouse) |  | mouse BMDM | 10 µM |  | inhibition | 21.3% |
| N#Cc1ccn2c(-c3ccncc3)c(-c3ccc(F)cc3)nc2c1 | orf19.3456 kinase Candida albicans | MIB/MS competition binding | Candida albicans cell lysate | 100 nM | relative to: DMSO, lower = stronger binding | log2 fold change | -0.133 |
| COc1ccc(-c2nc(N3CCOCC3)c3sc(CN(C)c4ncc(C(=O)NO)cn4)cc3n2)cn1 | human alphaherpesvirus 1 |  | primary human keratinocytes, K26 GFP |  | relative to: CC50 over IC50 | selectivity index | 2.07 |
| Clc1ccc(Nc2nnc(Cc3ccncc3)c3ccccc23)cc1 | iCell Cardiomyocytes (hiPSC-derived) | xCELLigence Cardio impedance |  | concentration not given, 2 h | relative to: control | beat rate | 101% |
| CC(C)NCC(O)c1ccc(O)c(O)c1 (centres unmarked) |  |  | ventricular cardiomyocytes, C57BL/6 mouse | dose not given, 0.68 s |  | sarcomere length | 1.72 µm |
| CC1(C)CNc2cc(NC(=O)c3cccnc3NCc3ccncc3)ccc21 | NLRP3 inflammasome (mouse) |  | mouse BMDM | 10 µM |  | inhibition | 38.8% |
| Cc1cccc(C)c1N(CC(=O)Nc1ccc(-c2ncon2)cc1)C(=O)C1CCS(=O)(=O)CC1 | human alphaherpesvirus 1 |  | primary human fibroblasts, K26 GFP |  | relative to: CC50 over IC50 | selectivity index | > 600 |
| CC(=O)CC(=O)CCC(=O)O |  | binding, equilibrium dialysis LC-MS |  | 5 µM, thermostabilized A2AR-BRIL construct | relative to: no-protein control, direction not given | z-scored log2 fold change | -0.353 |
| Nc1nc(CC(=O)O)cs1 | Ubiquitin carboxyl-terminal hydrolase 39, ZnF-UBD domain (Homo sapiens, UniProt Q53GS9) |  |  |  |  | Kd | > 1000 µM |
| COc1cc(Nc2c(C#N)cnc3cc(OCCCN4CCN(C)CC4)c(OC)cc23)c(Cl)cc1Cl | iCell Cardiomyocytes (hiPSC-derived) | cellular impedance |  | concentration not given, 24 h | relative to: control | cell index | 112% |

| SMILES | target or system | assay | system | setting | scale | quantity | result |
| --- | --- | --- | --- | --- | --- | --- | --- |
| O=C(O)CNC(=O)c1ccco1 |  | binding, equilibrium dialysis LC-MS |  | 5 µM, thermostabilized A2AR-BRIL construct | relative to: no-protein control, direction not given | z-scored log2 fold change | -0.985 |
| Oc1cccc(-c2nc(N3CCOCC3)c3oc4ncccc4c3n2)c1 | iCell Cardiomyocytes (hiPSC-derived) | CellTiter-Glo |  | concentration not given, 24 h | relative to: control | ATP level | 69.6% |
| C/C(=C/C(=O)O)C(=O)O |  | binding, equilibrium dialysis LC-MS |  | 5 µM, thermostabilized A2AR-BRIL construct | relative to: no-protein control, direction not given | z-scored log2 fold change | 0.578 |
| CC1(C)CNc2cc(NC(=O)c3cccnc3NCc3ccncc3)ccc21 | iCell Cardiomyocytes (hiPSC-derived) | cellular impedance |  | concentration not given, 24 h | relative to: control | cell index | 102% |
| O=C(O)/C=C(/CC(=O)O)C(=O)O |  | binding, equilibrium dialysis LC-MS |  | 5 µM, thermostabilized A2AR-BRIL construct | relative to: no-protein control, direction not given | z-scored log2 fold change | 0.0294 |
| C[C@]12O[C@H](C[C@]1(O)CO)n1c3ccccc3c3c4c(c5c6ccccc6n2c5c31)CNC4=O | iCell Cardiomyocytes (hiPSC-derived) | xCELLigence Cardio impedance |  | concentration not given, 2 h | relative to: control | beat rate | 149% |
| CCCc1nn(C)c2c(=O)[nH]c(-c3cc(S(=O)(=O)N4CCN(C)CC4)ccc3OCC)nc12 | Cryptosporidium parvum | parasite growth, immunofluorescence imaging | HCT-8, Iowa | 8.22 nM |  | inhibition | -27.9% and -33.2% |
| CCn1cc(-c2cc(Cn3ccnc3)cc3c2CCN([C@H](c2cc(OC)ccn2)C2CC2)C3=O)c(C(F)(F)F)n1 | OVTOKO | cell growth, inhibitor |  | 120 h |  | EC50 | 1.66 µM |
| CN[C@H](CC(C)C)C(=O)N[C@H]1C(=O)N[C@@H](CC(N)=O)C(=O)N[C@H]2C(=O)N[C@H]3C(=O)N[C@H](C(=O)N[C@H](C(=O)O)c4cc(O)cc(O)c4-c4cc3ccc4O)[C@H](O)c3ccc(c(Cl)c3)Oc3cc2cc(c3O[C@@H]2O[C@H](CO)[C@@H](O)[C@H](O)[C@H]2O[C@H]2C[C@](C)(N)[C@H](O)[C@H](C)O2)Oc2ccc(cc2Cl)[C@H]1O | Staphylococcus aureus |  | MRSA, 10 isolates | serum 75% |  | MIC50 | 4 µg/mL (≈ 2.76 µM) |
| Nc1nc2c(ncn2[C@H]2C[C@H](O)[C@@H](COP(=O)(O)OP(=O)(O)OP(=O)(O)O)O2)c(=O)[nH]1 |  | binding, equilibrium dialysis LC-MS |  | 5 µM, thermostabilized A2AR-BRIL construct | relative to: no-protein control, direction not given | z-scored log2 fold change | -0.441 |
| CS(=O)(=O)CCNCc1ccc(-c2ccc3ncnc(Nc4ccc(OCc5cccc(F)c5)c(Cl)c4)c3c2)o1 | NLRP3 inflammasome (mouse) |  | mouse BMDM | 10 µM |  | inhibition | 9.7% |
| NC(=O)NCCC[C@H](N)C(=O)O |  | binding, equilibrium dialysis LC-MS |  | 5 µM, thermostabilized A2AR-BRIL construct | relative to: no-protein control, direction not given | z-scored log2 fold change | 1.34 |
| Oc1ccccc1-c1n[nH]cc1-c1ccnc2ccccc12 | TOR1 (Candida albicans) | kinase binding, MIB/MS competition | Candida albicans lysate | 1 µM | relative to: DMSO | log2 fold change | 0.49 |
| Nc1nc(-c2ccccc2)nc2[nH]nc(Nc3ccc(C(F)(F)F)cc3)c12 | coxsackievirus B3 |  | NMRI mouse, CVB3 chronic myocarditis | oral, 100 mg/kg twice daily, day 0-6, day 0 | direction not given | clinical score | 0 |
| C[C@@H](Oc1cc(-c2cnn(C3CCNCC3)c2)cnc1N)c1c(Cl)ccc(F)c1Cl | NLRP3 inflammasome (mouse) |  | mouse BMDM | 10 µM |  | inhibition | 89.6% |
| O=C(O)C(O)c1ccc(O)c(O)c1 (racemic) |  | binding, equilibrium dialysis LC-MS |  | 5 µM, thermostabilized A2AR-BRIL construct | relative to: no-protein control, direction not given | z-scored log2 fold change | -0.276 |
| CNC(=O)c1ccc(-c2cnc3ncc(Cc4ccc5ncccc5c4)n3n2)cc1F | NLRP3 inflammasome (mouse) |  | mouse BMDM | 10 µM |  | inhibition | -12.1% |
| C[C@H](Oc1ccc(Br)cc1-c1ccon1)C(=O)O |  | muscle velocity recovery cycles | human, tibialis anterior muscle | 600 mg once daily, multiple doses, multiple ascending dose | relative to: placebo | interstimulus interval at ESN | 0.602 ms |
| Cn1c(Nc2ccc(C(F)(F)F)cc2)nc2cc(Oc3ccnc(-c4ncc(C(F)(F)F)[nH]4)c3)ccc21 | iCell Cardiomyocytes (hiPSC-derived) | cellular impedance |  | concentration not given, 24 h | relative to: control | cell index | 90.8% |
| CC(C)c1ccc2oc3nc(N)c(C(=O)O)cc3c(=O)c2c1 | NLRP3 inflammasome (mouse) |  | mouse BMDM | 10 µM |  | inhibition | 35.5% |
| O=C(CO)[C@@H](O)[C@H](O)[C@H](O)CO |  | binding, equilibrium dialysis LC-MS |  | 5 µM, thermostabilized A2AR-BRIL construct | relative to: no-protein control, direction not given | z-scored log2 fold change | -1.54 |
| CO[C@@H]1[C@H](N(C)C(=O)c2ccccc2)C[C@H]2O[C@]1(C)n1c3ccccc3c3c4c(c5c6ccccc6n2c5c31)C(=O)NC4 | iCell Cardiomyocytes (hiPSC-derived) | cellular impedance |  | concentration not given, 24 h | relative to: control | cell index | 83.3% |
